Experimental data from different studies.
Each numbered part is a random draw from the data of one study; scales do not carry over between parts. Positions count from the first letter of the parent shown.

Block 1 — technique: RNA Bind-n-Seq; form: RNA; medium: in vitro; concentration: 200 nM; notes: whole 134-nt RNA, ends assumed; with: 150 mM LiCl; reference: input library; reading: higher = stronger binding; library: 7-deaza-guanosine replaces G
Target: Fragile X messenger ribonucleoprotein 1, C-terminal low-complexity region (Fmr1, Mus musculus, UniProt P35922)
| Sequence | log2 enrichment |
| --- | --- |
| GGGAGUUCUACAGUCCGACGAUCCCUGUGCUACACAUCGUAUGUACCGAAUCGGGGUUUUUUUGGGGUUUUUUUGGGGUGGGGAAAGUAUUAUGUUACGCCGUUCGGAUCUGCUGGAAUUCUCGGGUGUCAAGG | -0.112 |
| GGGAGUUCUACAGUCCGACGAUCCUCAAGUCCUGUGCUACACAUCGUAUGUACCGAAUCGGAAAGGAAAAAGGAGGAAAGUAUUAUGUUACGCCGUUCGGAUCUGCACUUCCAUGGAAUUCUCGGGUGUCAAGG | -0.717 |
| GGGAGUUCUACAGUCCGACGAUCGCAGGAAGUAAAAACAAAUGAAAAUGCUUCGGAUAGUGGCAGGGGUGGGGGUUGCUAAGGAAAGGGUGGGAUGGGAGUGGGUAAAGAGUUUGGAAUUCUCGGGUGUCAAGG | 1.42 |
| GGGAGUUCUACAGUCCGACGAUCAAGUCCUGUGCUACACAUCGUAUGUACCGAAUCGGGAAAGGGUUUGGGAAAAAGGGAAAGUAUUAUGUUACGCCGUUCGGAUCUGCACUUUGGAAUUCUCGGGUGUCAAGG | -2.09 |
| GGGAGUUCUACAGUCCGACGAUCUCAAGUCCUGUGCUACACAUCGUAUGUACCGAAUCGGUUUGGGUUUGGGGUUUGGAAAGUAUUAUGUUACGCCGUUCGGAUCUGCACUUCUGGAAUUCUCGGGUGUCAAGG | -1.56 |
| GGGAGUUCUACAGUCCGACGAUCUCAAGUCCUGUGCUACACAUCGUAUGUACCGAAUCGGUUUUUUUGGUGGUUUGGAAAGUAUUAUGUUACGCCGUUCGGAUCUGCACUUCCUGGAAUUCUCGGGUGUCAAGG | -1.52 |
| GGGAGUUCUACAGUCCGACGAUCGUCCUGUGCUACACAUCGUAUGUACCGAAUCAAAUUUAAACCCCCCCAAACCCCCAAAAAAGUAUUAUGUUACGCCGUUCGGAUCUGCACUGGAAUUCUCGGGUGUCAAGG | 1.37 |
| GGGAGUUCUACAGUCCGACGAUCCAAGUCCUGUGCUACACAUCGUAUGUACCGAAUCGGCCCCGGCCCCGGCCCCGGGGAAAGUAUUAUGUUACGCCGUUCGGAUCUGCACUUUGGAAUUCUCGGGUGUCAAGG | -0.904 |
| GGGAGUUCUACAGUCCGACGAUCCUGUGCUACACAUCGUAUGUACCGAAUCGGGAAAAAAAGGGUUUUUUUGGGUUUUUUUGGGAAAGUAUUAUGUUACGCCGUUCGGAUCUGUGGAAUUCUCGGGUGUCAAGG | -2.37 |
| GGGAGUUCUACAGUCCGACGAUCAGUCCUGUGCUACACAUCGUAUGUACCGAAUCGGUUUUGGGGUUUUGGGUUUUGGGGAAAGUAUUAUGUUACGCCGUUCGGAUCUGCACUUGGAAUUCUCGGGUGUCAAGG | -1.27 |
| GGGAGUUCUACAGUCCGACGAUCAAGUCCUGUGCUACACAUCGUAUGUACCGAAUCGGGUGGGUUUGGGUUUUUUUGGGAAAGUAUUAUGUUACGCCGUUCGGAUCUGCACUUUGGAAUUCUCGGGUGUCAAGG | -1.4 |

Block 2 — technique: universal PBM; form: double-stranded DNA, one strand shown; medium: in vitro; concentration: 600 nM; reading: higher = stronger binding
Target: Sal-like protein 4, full length isoform A (SALL4, Homo sapiens, UniProt Q9UJQ4, residues 1-1053)
Chain of UniProt Q9UJQ4 (whole entry, looked up): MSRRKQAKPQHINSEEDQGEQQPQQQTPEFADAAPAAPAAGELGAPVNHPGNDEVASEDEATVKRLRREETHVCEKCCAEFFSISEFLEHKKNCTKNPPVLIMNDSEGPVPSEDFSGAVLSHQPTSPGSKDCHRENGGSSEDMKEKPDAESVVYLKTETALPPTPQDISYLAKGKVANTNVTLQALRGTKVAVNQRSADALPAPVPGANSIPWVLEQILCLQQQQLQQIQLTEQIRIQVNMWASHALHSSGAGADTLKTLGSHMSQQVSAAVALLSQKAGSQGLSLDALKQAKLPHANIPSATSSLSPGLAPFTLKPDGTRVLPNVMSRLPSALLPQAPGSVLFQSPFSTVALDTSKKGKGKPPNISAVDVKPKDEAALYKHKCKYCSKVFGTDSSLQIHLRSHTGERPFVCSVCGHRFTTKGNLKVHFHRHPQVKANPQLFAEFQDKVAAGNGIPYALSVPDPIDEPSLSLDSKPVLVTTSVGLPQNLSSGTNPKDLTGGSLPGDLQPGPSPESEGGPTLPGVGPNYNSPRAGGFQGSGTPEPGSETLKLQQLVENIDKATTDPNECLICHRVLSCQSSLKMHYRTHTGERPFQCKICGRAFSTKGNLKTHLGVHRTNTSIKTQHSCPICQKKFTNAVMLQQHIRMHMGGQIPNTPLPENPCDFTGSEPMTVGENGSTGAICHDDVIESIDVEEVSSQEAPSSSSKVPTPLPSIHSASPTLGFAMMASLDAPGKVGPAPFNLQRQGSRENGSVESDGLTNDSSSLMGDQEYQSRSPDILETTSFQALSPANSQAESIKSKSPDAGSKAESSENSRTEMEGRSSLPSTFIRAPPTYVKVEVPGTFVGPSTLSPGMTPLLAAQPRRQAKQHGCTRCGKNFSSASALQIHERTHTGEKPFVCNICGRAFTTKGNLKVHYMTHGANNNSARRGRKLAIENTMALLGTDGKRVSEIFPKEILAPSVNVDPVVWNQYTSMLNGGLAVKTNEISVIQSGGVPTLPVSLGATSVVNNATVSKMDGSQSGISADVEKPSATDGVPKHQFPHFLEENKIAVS
Notes: 8-mer, flanks averaged, mean of replicates
| Sequence | E-score |
| --- | --- |
| CGGAGTAG | -0.176 |
| CGCCACCG | -0.304 |
| GTATACTA | 0.142 |
| AGTGAAGG | 0.098 |
| GGCTCAAC | -0.202 |
| GCAGCTAA | -0.233 |
| TGGTCACA | 0.0103 |
| AGGATCCT | -0.161 |
| AAACTCAA | 0.248 |
| CTCCAGGA | -0.194 |
| GTGCCGAA | -0.158 |
| ATTACGAG | 0.168 |
| GCCTTACC | -0.141 |
| AACGGTAC | -0.0541 |
| AGCGCGGA | -0.201 |
| CAGCCTGG | -0.266 |
| AATCACCT | 0.17 |
| AGGTGACA | 0.036 |
| CCGCACGG | -0.302 |
| TAGAAAAA | 0.223 |
| CTGTGATC | -0.0791 |
| GATATTAA | 0.385 |
| GGCTCCGA | -0.293 |
| CCAGCGCA | -0.278 |

Block 3 — technique: DHFR PCA, dose-response; medium: yeast; with: (+)-ABA, dose series; reading: lower = more sensitive
Target: ABI1, truncated, D143A, DHFR fusion (Arabidopsis thaliana, UniProt P49597)
Notes: Hill fit, not affinity, not high confidence
Parent: PYL1, truncated, DHFR fusion (Arabidopsis thaliana, UniProt Q8VZS8); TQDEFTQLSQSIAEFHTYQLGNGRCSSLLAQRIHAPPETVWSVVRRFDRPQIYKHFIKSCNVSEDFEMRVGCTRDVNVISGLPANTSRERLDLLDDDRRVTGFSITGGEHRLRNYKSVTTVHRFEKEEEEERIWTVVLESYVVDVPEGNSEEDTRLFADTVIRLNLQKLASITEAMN
| Substitution | ABA EC50 [µM] |
| --- | --- |
| L8M | 5.25 |
| I33E | 9.32 |
| N177A | 0.798 |
| D153R | 831 |
| S80L | 0.455 |
| V40F | 0.369 |
| H16K | 196 |
| S117I | 51.9 |
| N177Q | 1.52 |
| V78F | 1.37 |
| F157T | 723 |
| R74W | 846 |
| H16Y | 0.805 |
| H16L | 188 |
| T135K | 943 |
| K54P | 8.99 |
| G81T | 202 |
| L166D | 0.403 |
| S117W | 10.3 |
| L169S | 33.8 |
| E89Y | 0.34 |
| R90P | 0.675 |
| V143K | 13.7 |
| V137Q | 31.1 |
| P50M | 22.3 |

Block 4 — technique: RNA Bind-n-Seq; form: RNA; medium: in vitro; concentration: 365 nM; reference: no-protein control; reading: higher = stronger binding
Target: RNA binding protein fox-1 homolog 2, RRM domain, GST-SBP tag (RBFOX2, Homo sapiens, UniProt O43251-10, residues 100-194)
Notes: natural RNA segment, single round, ends assumed
Target sequence (chain): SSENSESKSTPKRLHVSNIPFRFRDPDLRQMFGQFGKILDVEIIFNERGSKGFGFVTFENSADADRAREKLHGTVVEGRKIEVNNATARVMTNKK
| Sequence | RBNS enrichment (R) |
| --- | --- |
| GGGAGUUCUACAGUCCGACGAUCGCCUCUUCUCCUUGGGUCUUGGGGUGGGUUAGAACUGGGUUCCAGUCUGGCCAGAUGGGUUGCUGGCUGCACUGAGGGUGAUUCUUCUCAGAAGAUGGGCUGCCUGUGGUUGGAAUUCUCGGGUGCCAA | 0.799 |
| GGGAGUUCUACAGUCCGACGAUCCCUCCUGAGUGCUGGGAUUAAAGGCAAAAGCCACCACAGCCUGUUUUGUUUUGUUUUCGGUUUAAAAACAACAACAAACUGUGUGCAUGCAGAAUACAGACCUUGAGGUUUGGAAUUCUCGGGUGCCAA | 2.06 |
| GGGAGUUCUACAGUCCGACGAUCGUGGUCUCCACAGCCACCAUCAUACACUCAUCCCGUGUUUUCUUCCAAAAAGUCACCUCAGCAGCCUCCCCAGGCGAUACAGAGGGAGAGCCCAGACCACCACAGCUGGCUGGAAUUCUCGGGUGCCAA | 0.525 |
| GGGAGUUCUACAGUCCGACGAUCUGCUGGUAGCAUGCUGCAGCUUCUGUGUUAAAGGUCCUCUGGAGCUCGUGUAAGACAGGAAGAACACUUUCUCUGUAGUUUCUUUCUUUUCAUUUAUAAUUUACAAAAGUUGGAAUUCUCGGGUGCCAA | 44.4 |
| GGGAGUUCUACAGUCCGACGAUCCUUGUUCUUCGUGAUCCUGCUAUGUGAUUGGUCACAGAGUUUUAGAUUCAGGAAAGAAUGUUACCAGCUCAAAUUCCGAGGAUUUUUUUUUCCACAGCAAAGAAUAUUUGUGGAAUUCUCGGGUGCCAA | 1.04 |
| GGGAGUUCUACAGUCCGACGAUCCUCAACUUUCCUAGGAAAGAGCCCACCUCGGAGAUAGCUACGGUUUUCUCUGGUGGAGAUGGUGAGGAUGAAGGCUGGAGAGUGAGGGAGGAGGCUCUGCUGGCCGCAGAUGGAAUUCUCGGGUGCCAA | 0.548 |
| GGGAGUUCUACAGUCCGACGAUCGCCCCACUGCGCUGCUGACCUUCCUGCAGUUCCAGACACCUCCCACAAUAAAGAGCUCCUCCUCUGUAGCCGCUCUGCCAUCUCUGUGUACAAGGGUGCUGCAGCCAGUGUGGAAUUCUCGGGUGCCAA | 0.457 |
| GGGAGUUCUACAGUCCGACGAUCCUGGCGCAUGAAAUUCUAUUAAAAAUGCAUUCUUCUGAAUAAAAAGAGUAUUCACUAUUUAACUUCAAAACUAUGGCUGUGGUCUUCUAUUGGUCUGUUUUCCACUAACAUGGAAUUCUCGGGUGCCAA | 0.512 |
| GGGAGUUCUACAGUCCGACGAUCGGGCCACAUGUGUUCACUAUUCAGGCUCCACUGGGGGAAUUUUCCUACCUUUGCUGGCUUGGCUCCUGCUCCCAGGCCAGGGACCUCGGUCUGUCUACUACACACUCUGGUGGAAUUCUCGGGUGCCAA | 0.327 |
| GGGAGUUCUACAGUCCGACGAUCUUAAUCUGGUUCAUUUGAAAUUUCUCACUUCUUAACCAUAGAGCUAAGUUAUUGUCAAAACUGGGCAGGAGACAGGAGAUUGGAGUGGUCUCUGCUGGGGUGUCUGACCCUGGAAUUCUCGGGUGCCAA | 0.534 |
| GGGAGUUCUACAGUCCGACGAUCCAGACGACUGAGCCGGGGAGCAGCAAUGUUGUAUGGGCUACGCGGCCCAUGGCCGUGGGUCUCCUCGCUGAGCUGCAACCUGAUGCAUCGACAUUUAAUGUUGGCAGUGUUGGAAUUCUCGGGUGCCAA | 0.24 |
| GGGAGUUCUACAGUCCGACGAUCAUAGAGUUAACAACUUACGAUAAAUUGCCCAAAGCUGGGCCUUGCUGUGUGUGCUCUGGACACUGUACAUUUGUACCCAACCAAGUGGGUCAAGUCGGAGAGGGACUCUUUGGAAUUCUCGGGUGCCAA | 0.353 |

Block 5 — technique: protein binding microarray; form: double-stranded DNA, one strand shown; medium: in vitro; concentration: not given; reference: not given; reading: higher = stronger binding
Target: Histone acetyltransferase KAT6A, both winged helices, GST fusion (KAT6A, Homo sapiens, UniProt Q92794, residues 1-181)
Notes: 8-mer, flanks averaged, mean of 2 arrays, mostly near background
Residues (chain): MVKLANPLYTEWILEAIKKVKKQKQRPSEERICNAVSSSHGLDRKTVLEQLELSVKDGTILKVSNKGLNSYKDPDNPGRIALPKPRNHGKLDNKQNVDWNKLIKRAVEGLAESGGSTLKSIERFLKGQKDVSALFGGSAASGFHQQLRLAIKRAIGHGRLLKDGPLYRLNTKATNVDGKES
| Sequence | E-score |
| --- | --- |
| CCTCATTC | -0.138 |
| AATCCGGC | 0.0811 |
| CCACCTTC | -0.291 |
| ACGCAACC | 0.106 |
| CAGAAGGC | -0.0758 |
| ACTAGCCG | 0.232 |
| CCGATTGA | 0.0351 |
| GGGCTGAA | 0.0678 |
| ACGGTACT | 0.183 |
| TAACAGAA | -0.116 |
| ACCGTCAC | 0.114 |
| CATCACAG | -0.0578 |
| AGTATGAT | -0.085 |
| AATACACA | -0.0162 |
| CCGAAAAG | -0.102 |
| ACTTCAGG | -0.107 |
| CCTAACAA | -0.139 |
| AATAACGA | -0.00415 |
| ATTACCAC | -0.147 |
| CCATACAA | -0.221 |
| ATTATATC | -0.102 |
| CGAGCGTC | 0.146 |
| ACAGAGTG | -0.171 |

Repeated from above (block 3):
| Substitution | ABA EC50 [µM] |
| --- | --- |
| H16K | 196 |
| G81T | 202 |
| L8M | 5.25 |
| S117I | 51.9 |
| R74W | 846 |
| S80L | 0.455 |
| D153R | 831 |
| F157T | 723 |
| L166D | 0.403 |
| V137Q | 31.1 |
